Assay results from different studies.
Each numbered part is a random draw from the data of one study; scales do not carry over between parts. Positions count from the first letter of the parent shown.
Chain of UniProt Q84WU6 (whole entry, looked up): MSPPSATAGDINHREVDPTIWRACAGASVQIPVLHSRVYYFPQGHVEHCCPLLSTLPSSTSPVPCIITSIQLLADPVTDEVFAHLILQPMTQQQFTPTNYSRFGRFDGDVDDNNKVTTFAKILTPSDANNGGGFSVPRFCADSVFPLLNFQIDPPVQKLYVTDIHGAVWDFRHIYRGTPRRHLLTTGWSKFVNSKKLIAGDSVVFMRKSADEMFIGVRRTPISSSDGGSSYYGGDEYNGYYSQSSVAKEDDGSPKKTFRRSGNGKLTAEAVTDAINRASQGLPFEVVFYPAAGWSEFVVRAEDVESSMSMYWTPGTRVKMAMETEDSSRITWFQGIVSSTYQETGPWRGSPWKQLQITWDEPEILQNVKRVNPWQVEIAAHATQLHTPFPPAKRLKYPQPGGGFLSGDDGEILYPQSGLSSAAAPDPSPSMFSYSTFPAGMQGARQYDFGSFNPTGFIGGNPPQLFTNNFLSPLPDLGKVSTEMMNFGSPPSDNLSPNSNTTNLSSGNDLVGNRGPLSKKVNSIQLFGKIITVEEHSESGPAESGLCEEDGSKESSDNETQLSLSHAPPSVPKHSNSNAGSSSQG
Chain of UniProt Q9C8N7 (whole entry, looked up): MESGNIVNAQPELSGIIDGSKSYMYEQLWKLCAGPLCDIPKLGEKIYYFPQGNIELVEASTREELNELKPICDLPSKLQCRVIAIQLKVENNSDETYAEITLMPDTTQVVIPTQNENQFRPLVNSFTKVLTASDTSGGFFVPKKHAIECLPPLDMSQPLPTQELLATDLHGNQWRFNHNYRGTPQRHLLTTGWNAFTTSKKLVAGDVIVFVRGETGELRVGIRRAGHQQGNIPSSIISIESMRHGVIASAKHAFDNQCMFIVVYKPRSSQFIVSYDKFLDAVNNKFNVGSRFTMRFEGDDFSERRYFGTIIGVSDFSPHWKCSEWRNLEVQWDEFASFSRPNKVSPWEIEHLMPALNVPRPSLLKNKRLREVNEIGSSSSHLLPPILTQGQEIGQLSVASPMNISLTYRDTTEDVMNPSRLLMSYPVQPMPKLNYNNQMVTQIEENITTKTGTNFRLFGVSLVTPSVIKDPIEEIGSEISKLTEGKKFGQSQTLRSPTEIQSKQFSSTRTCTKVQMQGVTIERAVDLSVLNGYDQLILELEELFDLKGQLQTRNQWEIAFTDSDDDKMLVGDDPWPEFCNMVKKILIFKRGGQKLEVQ
Chain of UniProt Q8L7G0 (whole entry, looked up): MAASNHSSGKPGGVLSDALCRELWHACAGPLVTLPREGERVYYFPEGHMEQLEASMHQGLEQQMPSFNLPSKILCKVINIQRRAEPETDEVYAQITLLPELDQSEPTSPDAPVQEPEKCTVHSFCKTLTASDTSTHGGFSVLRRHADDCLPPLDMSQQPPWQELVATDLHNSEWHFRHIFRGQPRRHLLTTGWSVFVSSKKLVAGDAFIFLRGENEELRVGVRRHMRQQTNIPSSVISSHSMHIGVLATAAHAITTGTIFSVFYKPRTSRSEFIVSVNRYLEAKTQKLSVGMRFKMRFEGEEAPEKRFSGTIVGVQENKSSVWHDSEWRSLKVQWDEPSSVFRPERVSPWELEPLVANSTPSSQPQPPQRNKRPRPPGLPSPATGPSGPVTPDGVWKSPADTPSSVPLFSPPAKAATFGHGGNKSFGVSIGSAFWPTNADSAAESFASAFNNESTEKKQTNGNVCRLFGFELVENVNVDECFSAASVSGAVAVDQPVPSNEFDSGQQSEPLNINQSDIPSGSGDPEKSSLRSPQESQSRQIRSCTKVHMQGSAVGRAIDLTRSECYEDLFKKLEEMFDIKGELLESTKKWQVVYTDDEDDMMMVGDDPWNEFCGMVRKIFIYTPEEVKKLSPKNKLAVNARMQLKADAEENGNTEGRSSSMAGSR
Chain of UniProt Q9FKM7 (whole entry, looked up): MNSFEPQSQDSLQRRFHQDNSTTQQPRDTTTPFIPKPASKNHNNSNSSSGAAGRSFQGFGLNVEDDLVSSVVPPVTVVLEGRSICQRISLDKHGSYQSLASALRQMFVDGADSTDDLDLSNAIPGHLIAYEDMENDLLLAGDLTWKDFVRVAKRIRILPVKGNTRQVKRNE
Chain of UniProt Q94JM3 (whole entry, looked up): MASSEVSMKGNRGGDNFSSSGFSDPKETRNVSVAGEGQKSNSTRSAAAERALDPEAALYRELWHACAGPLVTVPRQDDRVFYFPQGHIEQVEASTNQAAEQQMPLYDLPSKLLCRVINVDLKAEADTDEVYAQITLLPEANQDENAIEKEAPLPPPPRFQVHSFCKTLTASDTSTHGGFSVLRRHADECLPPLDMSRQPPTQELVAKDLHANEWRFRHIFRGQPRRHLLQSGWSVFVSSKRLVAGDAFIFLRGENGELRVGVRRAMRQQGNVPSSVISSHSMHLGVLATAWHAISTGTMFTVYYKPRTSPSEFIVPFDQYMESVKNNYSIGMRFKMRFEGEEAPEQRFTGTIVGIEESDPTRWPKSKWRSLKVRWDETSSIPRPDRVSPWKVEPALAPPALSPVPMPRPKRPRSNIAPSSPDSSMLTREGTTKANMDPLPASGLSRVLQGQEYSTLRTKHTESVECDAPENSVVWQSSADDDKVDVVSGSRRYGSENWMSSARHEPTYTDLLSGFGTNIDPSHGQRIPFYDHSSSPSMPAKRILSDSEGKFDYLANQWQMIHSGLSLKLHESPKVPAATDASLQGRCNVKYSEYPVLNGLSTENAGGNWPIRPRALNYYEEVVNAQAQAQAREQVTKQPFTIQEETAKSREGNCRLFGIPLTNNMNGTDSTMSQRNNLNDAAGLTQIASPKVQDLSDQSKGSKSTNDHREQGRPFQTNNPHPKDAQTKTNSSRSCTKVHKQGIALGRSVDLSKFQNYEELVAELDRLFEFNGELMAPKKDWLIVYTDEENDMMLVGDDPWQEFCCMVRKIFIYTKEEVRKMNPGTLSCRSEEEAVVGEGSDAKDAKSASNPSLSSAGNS
Chain of UniProt Q9C7I9 (whole entry, looked up): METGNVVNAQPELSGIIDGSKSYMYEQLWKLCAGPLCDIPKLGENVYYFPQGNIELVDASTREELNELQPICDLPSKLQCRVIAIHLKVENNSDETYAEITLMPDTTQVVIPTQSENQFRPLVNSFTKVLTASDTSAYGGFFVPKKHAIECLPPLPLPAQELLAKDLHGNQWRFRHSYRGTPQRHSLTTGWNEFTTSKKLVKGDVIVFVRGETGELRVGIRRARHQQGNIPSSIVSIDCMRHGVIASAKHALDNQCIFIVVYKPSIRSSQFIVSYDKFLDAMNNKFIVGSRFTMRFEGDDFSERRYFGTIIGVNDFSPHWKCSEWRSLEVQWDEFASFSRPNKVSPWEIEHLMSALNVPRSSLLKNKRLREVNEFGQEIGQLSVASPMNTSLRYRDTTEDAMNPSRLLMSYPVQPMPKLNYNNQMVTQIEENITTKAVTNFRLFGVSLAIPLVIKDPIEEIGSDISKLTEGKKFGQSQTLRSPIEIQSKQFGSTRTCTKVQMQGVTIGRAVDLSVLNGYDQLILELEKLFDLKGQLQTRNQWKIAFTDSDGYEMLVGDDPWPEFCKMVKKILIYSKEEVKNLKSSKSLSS

Set 1 — method: RNA Bind-n-Seq; form: RNA; medium: in vitro; concentration: not given; relative to: input RNA pool; reading: higher = stronger binding
Target: RING finger protein unkempt homolog, zinc fingers 1-6, GST-SBP tag (UNK, Homo sapiens, UniProt Q9C0B0, residues 30-357)
Setting: RNA with constant flanks, human and mouse sites, ends assumed
All sequences stand within: GGGAGUUCUACAGUCCGACGAUC … CAACAGAGGAUUGAGCAUCA
Residues (chain): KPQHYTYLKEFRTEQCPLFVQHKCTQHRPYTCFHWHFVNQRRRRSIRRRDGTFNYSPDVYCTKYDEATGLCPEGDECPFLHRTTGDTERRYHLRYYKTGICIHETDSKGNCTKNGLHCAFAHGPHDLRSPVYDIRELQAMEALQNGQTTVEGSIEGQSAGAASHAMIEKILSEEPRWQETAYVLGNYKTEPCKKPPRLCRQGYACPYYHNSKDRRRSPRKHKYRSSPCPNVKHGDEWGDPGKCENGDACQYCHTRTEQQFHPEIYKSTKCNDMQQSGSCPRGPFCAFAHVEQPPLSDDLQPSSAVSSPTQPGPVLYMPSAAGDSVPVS
Strand	bound/input enrichment
CUCGGCCGCCUGCCGUGCCCGUCUGCGCCCGUGUCAUCCUCACUCGGGACGCAGGGACCGUUUUUAAAUCACAGGGGCGUGUGUCAGCCUGCCCUAGGACUUCAUGUCUAUAUAUUUCCC	0.316 ratio
GACAUCCUCUAUGCCCGGCAGAAGGUUGUUGUCACGGCAAAAGCCUUUGGCCUACAAGCCAUAGAUCUUGUGUACAUUGACUUCCGAGAUGAAGACGGACUUCUCAGACAGUCAAGGGAA	0.235 ratio
GAAACAUCUCCAGAAUCAUCUCUAAUUCAAGAUGAGAUUGCCGUCAAAUUGUCAGUGGAAAUACCUUGCCCACCUGCUGUUUCAGAGGCUGAUUUAGCCACAGAUGAGAGAGCUGAUGUC	0.0634 ratio
AUGGCCCUAAAGAUUGUGCCAAGAGUGAUGACGAGGAGAGUCUGACUCUCCCUGAGAAGGAAACUGAAGGUGAAGGGCCCAGCCUGCCCAUGGCCUGCACCAAGACGGAACCCAUCGCCU	0.084 ratio
GGUGAAGGUGGGAGGGGAGGGAGGGAAGAACUAAGAGGGAAACUGAAAAAUGAAUUUAUCUUUCUUUAAAUGGAAGUCAGUUUGGUGGUUCAUGGCACCUAGUGUGAACAUCAGGGUGAG	3.1 ratio
ACUCCUAUUAGCAAUGAAGUGGAAAUGGAAUCUGAGGAACAGAUUGCAGAAAGGAAAAGGAAGAUGACAAGAGAAGAAAGAAAAAUGGAAGCAAUUUUGCAGGCUUUUGCCAGACUUGAG	1.17 ratio
GGUAACCAGAGAAAAGUUCCUUUCUGAAUGGAGAGCUCUCCUCACUGCUCCAGCACCAUACUUAGAACCCUCACUCUCUUUCAAAAGAAUGGCAGUUGAGAUUCACUGGCCCUCAGGGGA	0.125 ratio
UUGUACGCUUUAUCCAAAGAAAUAUAUGUGAUUAGCGCAGAGACCUUCACUGCCCUAUCAGUACUAGGUGUAAUGGUCUAUGGAAUUAAAAAAUAUGGUCCCUUUGUUGCAGACUUUGCU	0.521 ratio

Set 2 — method: DHFR PCA, deep sequencing; medium: yeast; together with: (+)-ABA 4.8 µM; relative to: wild-type fitted maximum; reading: higher = stronger binding
Target: ABI1, truncated, D143A, DHFR fusion (Arabidopsis thaliana)
Setting: methotrexate growth selection, single substitutions
Starting sequence: PYL1, truncated, DHFR fusion (Arabidopsis thaliana); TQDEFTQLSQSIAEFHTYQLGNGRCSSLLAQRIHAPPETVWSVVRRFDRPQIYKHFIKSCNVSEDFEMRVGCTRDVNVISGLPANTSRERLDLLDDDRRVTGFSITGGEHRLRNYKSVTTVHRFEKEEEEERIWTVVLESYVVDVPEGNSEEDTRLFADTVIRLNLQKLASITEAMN; partner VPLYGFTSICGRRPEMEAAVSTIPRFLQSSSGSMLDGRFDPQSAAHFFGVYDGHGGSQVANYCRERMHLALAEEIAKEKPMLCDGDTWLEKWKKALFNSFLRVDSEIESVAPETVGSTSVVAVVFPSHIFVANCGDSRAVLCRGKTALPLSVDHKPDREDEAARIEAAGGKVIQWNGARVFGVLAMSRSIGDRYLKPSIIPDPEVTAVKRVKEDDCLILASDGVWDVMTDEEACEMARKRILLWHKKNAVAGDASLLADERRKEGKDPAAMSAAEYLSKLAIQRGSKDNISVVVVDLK
Change	relative binding score [%]
I172E	17.6
N165G	-1.49
E130A	80.9
V136T	36.6
G102E	-0.728
S87P	24.9
F56V	-6.44
R132G	101
I57A	9.1
D92N	22.8
E4F	54.2
E109V	43.2
I33W	3.82
F103H	-2.3
L169D	-2.87
I12F	2.48
G148P	11
Y18M	28.8
V143D	-3.7
E152R	41.9
T86V	46.4
D96V	-1.5
A158L	94.8
P83Q	21.9
V40H	17.5

Set 3 — target: CREM, bZIP domain (human); method: DHFR protein complementation; medium: yeast; relative to: wild-type JUN-FOS pair; reading: higher = stronger binding
Setting: single substitutions, most at no-binding floor
Starting sequence: JUN, bZIP domain (human); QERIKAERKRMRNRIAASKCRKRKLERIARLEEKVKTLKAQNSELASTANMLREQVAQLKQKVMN; partner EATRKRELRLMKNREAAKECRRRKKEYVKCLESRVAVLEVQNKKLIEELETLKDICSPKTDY
Change	binding fitness
K39M	-1.26 natural log
S47K	-0.942 natural log
A29R	-1.42 natural log
K39W	-1.55 natural log
M51A	-1.37 natural log
A40W	-1.42 natural log
R53D	-1.41 natural log
K36V	-1.46 natural log
K34H	-1.53 natural log
L45Q	-1.54 natural log
R30E	-1.28 natural log
L45W	-1.47 natural log
S43L	-1.42 natural log
K36I	-1.43 natural log
E33N	-1.48 natural log
L52M	-1.47 natural log
S43I	-1.39 natural log
Q55G	-1.53 natural log
L52A	-1.45 natural log
R53P	-1.51 natural log

Set 4 — Sequence: B1 (IAA30); method: two-hybrid; setting: weak activation fusion; reading: higher = firmer interaction
B1: IAA30 (Arabidopsis thaliana, UniProt Q9M1R4); chain MGRGRSSSSSSIESSCKSNPFGVSSSNTRNLSTDLRLGLSFGSSSGQYYNGGDNHEYDGVGAAEEMMIMEEEEQNECNSVGSFYVKVNMEGVPIGRKIDLLSLNGYHDLITTLDYMFNASILWAEEEDMCSEKSHVLTYADKEGDWMMVGDVPWEMFLSSVRRLKISRAYHY
partner	how to read	positive tests
ARF17 (Arabidopsis thaliana, UniProt Q84WU6)	relative to: out of 3 tests	0
ARF20 484-590 (Arabidopsis thaliana, UniProt Q9C7I9)	relative to: out of 4 tests	1
ARF2 727-859 (Arabidopsis thaliana, UniProt Q94JM3)	relative to: out of 4 tests	0
ARF22 498-598 (Arabidopsis thaliana, UniProt Q9C8N7)	relative to: out of 4 tests	1
ARF1 538-665 (Arabidopsis thaliana, UniProt Q8L7G0)	relative to: out of 4 tests	1
IAA33 (Arabidopsis thaliana, UniProt Q9FKM7)	relative to: out of 4 tests	2

Repeated from above (set 3):
Change	binding fitness
A40W	-1.42 natural log
R53D	-1.41 natural log
K36V	-1.46 natural log
